Measurements of several laboratories.
Compare with care: the assays were run in different laboratories. ± gives the spread as reported.

Compound | cell line | assay | conditions | IC50
C=CCc1cc(OC)c(OC(C)=O)c(OC)c1 | EJ-28 | MTT | 24 h | > 50 µM
CC(=O)OC[C@]1(C)CCC[C@]2(CO)[C@@H]1CC[C@@]13C[C@@H](C[C@H](O)[C@H]12)[C@H](C)C3=O | 786-0 | cell growth or viability, MTT |  | 3.8 µM
N[C@@H](CCC(=O)N[C@@H](CS[Se]Cc1ccc(-c2cc(C(F)(F)F)nn2-c2ccc(S(N)(=O)=O)cc2)cc1)C(=O)NCC(=O)O)C(=O)O | FF2441 | cell growth or viability, MTS |  | > 100 µM
[Cl][Pd-]1([Cl])[S]C(Nc2ccccc2)=N[N+]1=Cc1cccs1 | CEM human lymphocytes | cell proliferation |  | 34 µM
C1=CCC=C1.[Cl][Pd-2]1([Cl])[N+](=P(c2ccccc2)(c2ccccc2)C2C=CC=C2)Cc2cccc[n+]21.[Fe+2] | A2780cisR (cisplatin-resistant) | cell growth, MTT | 74 h, 1% DMSO | 11.9 ± 2.5 µM
COc1cccc(Cc2cc(C)nn(S(=O)(=O)c3cccc4c(N(C)C)cccc34)c2=O)c1 | human neutrophils | calcium flux, antagonist | 10 min preincubation, added: fMLF 5 nM | 19.3 ± 4.98 µM
[Fe+2].c1ccc(P(=NCc2ccccn2)(c2ccccc2)[c-]2cccc2)cc1.c1ccc(P(=NCc2ccccn2)(c2ccccc2)[c-]2cccc2)cc1 | A2780cisR (cisplatin-resistant) | cell growth, MTT | 74 h, 1% DMSO | 13.1 ± 4 µM
Cc1c(-c2cccc(C3=NCCN3)c2)oc(-c2cccc(C3=NCCN3)c2)c1C | 786-O | cell growth, SRB | 96 h | 3 µM
O=C(Cc1ccc2ccccc2c1)N[C@H](Cc1ccccc1)C(=O)N[C@H](Cc1ccc(O)cc1)C(=O)N[C@H](Cc1ccccc1)C(=O)N[C@H](Cc1ccc(OP(=O)(O)O)cc1)C(=O)O | A2780cis | cell growth or viability, MTT |  | 212 µg/mL
CCCCCCCCCCCCCCCCCCCC(=O)N[C@@H](CCCCN)C(=O)N[C@@H](CCCCN)C(=O)N[C@@H](CCCCN)C(=O)N[C@@H](CCCCN)C(=O)N[C@@H](CCCCN)C(N)=O | HCEC | cytotoxicity |  | 22.5 µg/mL
C=C1C(=O)OC2CC3=C[C@@H](C/C(C)=C/C(OC(=O)Cc4cccc5ccccc45)[C@H]12)OC3=O (stereo partly drawn) | PC-6 | cell growth or viability, MTT | 24 h | 0.34 µM
CCCC(CCC)C(=O)[O][Pt]([NH2])([NH2])([Cl])([Cl])[O]C(=O)C(C)c1ccc(CC(C)C)cc1 (stereo not drawn) | C13 cisplatin-resistant | cytotoxicity, MTT | 72 h | 1.61 ± 0.42 µM
C[C@@H]1NC(=O)[C@@H](CCC(=O)O)NC(=O)[C@H](Cc2ccccc2)NC(=O)[C@H](CCC(=O)O)NC(=O)[C@H](CC(N)=O)NC1=O | WM-115 | WM-115 cell adhesion, inhibitor | 1 h, added: immobilized CagL RGA mutant | 30 to 530 µM
Cn1ccc(-c2cc(Cl)c(Cl)c3[nH]c4c(c23)CN(C(=O)CO)CC4)n1 | cGAS I309T mouse BMDM | CXCL10 secretion, inhibitor | added: 100 bp dsDNA | 0.82 µM
COc1ccc(/C=C/C2=[N+]3C(=C(CO)c4c(C)cc(/C=C/c5ccc(OC)cc5)n4[B-]3(F)F)C(C)=C2)cc1 | RPE-1 | cell growth or viability, resazurin | dark | > 100 µM
Cc1ccc(S(=O)(=O)c2c(-c3ccccc3)c3c(C)c4ccc(C)cc4n3c3ccccc23)cc1 | LS174T | cell growth or viability, MTT | 72 h | > 100 µM
NS(=O)(=O)c1ccc(NC(=O)NN[C@@H]2O[C@H](CO)[C@@H](O)[C@H](O)[C@H]2O)cc1 | HCEC | cell growth or viability, MTT | 96 h | > 100 µM
C=C[C@H](OC(C)=O)c1ccc(OC(C)=O)cc1 | RT-112 | cell growth or viability, MTT | 24 h | 14.1 µM
CC(=O)[O-].O.O.O.O.[Ni+2].[O-]c1ccc(Br)cc1C=NCCN1CCOCC1 | NHDF normal fibroblasts | cell viability, MTT | 72 h | 59.2 µg/mL
C=CC(OC(C)=O)c1ccc(OC(C)=O)c(OC)c1 (stereo not drawn) | RT-112 | cell growth or viability, MTT | 24 h | 10.9 µM
CNC(=O)C1CCN(c2ccccc2NC(=O)c2ccc(-c3cc(O)ccc3C)c(C)n2)CC1 | 12Z | cell growth or viability, ATP luminescence | 72 h | 0.456 µM
CC(C)=CCC1=C([O-])C(=O)c2ccccc2C1=O.CC(C)=CCC1=C([O-])C(=O)c2ccccc2C1=O.[Cu+2].c1ccc(-c2ccccn2)nc1 | MRC5 normal fibroblasts | cell viability, MTT | 24 h | 36 ± 2.8 µM
Cc1cc(NC(=O)c2cccc(N)c2)ccc1Nc1nccc(-c2cccnc2)n1 | SH-SY5Y MKK7-ACT | c-Jun phosphorylation, inhibitor, HTRF, measured: phospho-c-Jun Ser63 | 6 h, added: doxycycline | 2.13 ± 0.135 µM
Cc1c(C)c(C)[c-](C)c1C.O=Cc1c[c-]c(-c2ccccn2)cc1.[Cl-].[Ir+3] | A2780 cells | cell growth, SRB | 24 h exposure, 72 h recovery | 6.9 ± 0.3 µM
C=C(C)C(=O)Nc1ccc(-c2c(-c3ccc(Oc4cccc(C)n4)cc3)c3c(N)ncnc3n2C)cc1 | SNU-16 | cell growth or viability, ATP luminescence | 96 h | 0.0036 µM
Cc1cc(C#N)cc(C)c1Oc1cc(Nc2ccc(C#N)cc2)nc2cnccc12 | MOLT-3 |  | 48 h | > 128 µM

Compound | cell line | assay | conditions | IC50
Cc1ccc2oc(-c3c4c(N)n[nH]c(=O)c4nn3-c3ccc(NC(=O)/C=C/CN(C)C)cc3)c(C)c2c1 | Ba/F3 TEL-FGFR1 | cell proliferation |  | < 0.0003 µM
O=[N+]([O-])c1ccc(NC2=N[N+](=Cc3cccs3)[Pt-]([Cl])([Cl])[S]2)cc1 | CRFK | cell growth or viability |  | > 100 µM
CC1OC(OCC2OC(Oc3cc(O)c4c(=O)cc(-c5ccc(O)c(O)c5)oc4c3)C(O)C(O)C2O)C(O)C(O)C1O (stereo not drawn) | AML12 | cell growth or viability, resazurin | 72 h | > 100 µM
CN1CCCNC(=O)CC2(CCCCC2)CC(=O)NCCCN(C)CCCNc2cccc3c2C(=O)c2cccc(c2C3=O)NCCC1 | SAS | cell growth or viability, CCK-8 | 48 h | > 20 µM
CN(C)C1=[S+][Au-2]2([S]1)[c]1ccccc1-c1cccc[n+]12.F[P-](F)(F)(F)(F)F (stereo not drawn) | BT-333 glioblastoma | MTT | 72 h | 0.013 ± 0.02 µM
CCC(CC)c1nc(-c2ccc(O)cc2O)cs1 | HEK293T | cell growth, PrestoBlue | 72 h | 14.7 µM
CN(C)C(=S)[S][Pd][c]1ccccc1C(=O)N=P12CN3CN(CN(C3)C1)C2 | human PBMC | cytotoxicity, MTT | 24 h, 1% DMSO | 186 ± 9 µM
Cc1cc(C)c(-n2c3c([n+](-c4c(C)cc(C)cc4C)[c]2[Au-][Cl])-c2cccc4cccc-3c24)c(C)c1 | C13 cisplatin-resistant | cell viability, MTT | 72 h | 8 ± 1 µM
CCN(CC)CCN1C(=O)c2ccc3c4cccc5c(NCCN)ccc(c6ccc(c2c36)C1=O)c54 | human PBMC | cell growth or viability, SRB | 72 h | 235 µM
CN1CCC2(CC1)C/C(=N\NC(=O)Nc1ccc([N+](=O)[O-])cc1)c1ccccc1O2 | MCF7, HCT-116, PC-3 | cell growth, MTT | range over cell lines | 10.8 to 20.7 µM
CC(C)=CCc1c(-c2cc(O)c(O)cc2O)oc2c(CC=C(C)C)c(O)cc(O)c2c1=O | SAS | cell growth or viability, MTT | 72 h | 50 µM
CC(C)c1cccc(C(C)C)c1-n1c(Cl)c(Cl)n(-c2c(C(C)C)cccc2C(C)C)c1=[Se].[Cl][Au] | LoVo MDR | MTT | 72 h | 4.1 µM
CC1CC(=O)N(CCCN)N=C1c1ccc(NC(=O)N2Cc3ccncc3C2)cc1 (stereo not drawn) | A549-C4.4a | cell viability, CellTiter-Glo |  | > 0.3 µM
CCCCCCCCC=CCCCCCCCC(=O)OCC1OC(n2ccc(N)nc2=O)C(F)(F)C1O (stereo not drawn) | THX | cell growth |  | 0.004 ± 0.0016 µM
C=CC(=O)Nc1ccc(-c2c(-c3ccc(OC)cc3)c3c(N)ncnc3n2C)cc1 | SNU-16 | cell growth or viability, ATP luminescence | 96 h | 0.022 µM
CCn1cc[n+](CC)[c]1[Au-]([Cl])([Cl])[Cl] | RC-124 kidney epithelial | cell proliferation, crystal violet staining | 96 h | 7 ± 2.4 µM
S=c1n(-c2ccccc2)c2c3ccccc3nc3[n+]2[n]1[Ir-3]12([S]3)([c]3ccccc3-c3sc4ccccc4[n+]31)[c]1ccccc1-c1sc3ccccc3[n+]12 | MRC9 | cell viability, MTT | irradiation 450 nm, 15.5 mW/cm^2, 15 min | > 50 µM
CC1=C2[O][Ru-]([Cl])[O+]=C2C=CN1CCCCCCN1C=CC2=[O+][Ru-]([Cl])[O]C2=C1C.Cc1ccc(C(C)C)cc1.Cc1ccc(C(C)C)cc1 | SISO-oxo oxoplatin-resistant | crystal violet | 96 h | 15.7 µM
O=C1NCC(Cc2ccccc2)N(CC2CCCN2CC(CC2CCCCC2)N2CC(Cc3ccc(O)cc3)N(CCc3ccccc3)C(=O)C2=O)C1=O (stereo not drawn) | WM-115 | cell growth or viability, ATP luminescence | 72 h | 7 µM
CCOC(=O)c1ccc2c(c1)n(CC)[c]([Au-]([Cl])([Cl])[Cl])[n+]2CC | RC-124 kidney epithelial | cell proliferation, crystal violet staining | 96 h | 5.5 ± 0.9 µM
COc1ccc(/C=C/C2=[N+]3C(=C(CO)c4c(C)cc(/C=C/c5ccc(OC)cc5)n4[B-]3(F)F)C(C)=C2C=O)cc1 | RPE-1 | phototoxicity, resazurin | added: 645 nm light, 9.00 J/cm2 | 3.8 ± 0.5 µM
NS(=O)(=O)c1ccc(NC(=O)NN[C@@H]2OC[C@@H](O)[C@H](O)[C@H]2O)cc1 | HCEC | cell growth or viability, MTT | 96 h | > 100 µM
CCC12CCc3c(c4ccccc4n3C)CCN(CC3OC31)C2 (stereo not drawn) | BV-2 | cell growth or viability, MTT |  | 73.1 µM
COc1cc(OC)c(F)c(/C=C/c2cnc3ccn(S(=O)(=O)c4cn(CCF)cn4)c3n2)c1F | SNU-16 | cell growth or viability |  | 0.0748 µM
Clc1ccc(C=[N+]2N=C(Nc3ccccc3)[S][Pd-]2([Cl])[Cl])s1 | CEM human lymphocytes | cell proliferation |  | 60 µM

Repeated from above:
Compound | cell line | assay | conditions | IC50
COc1ccc(/C=C/C2=[N+]3C(=C(CO)c4c(C)cc(/C=C/c5ccc(OC)cc5)n4[B-]3(F)F)C(C)=C2)cc1 | RPE-1 | cell growth or viability, resazurin | dark | > 100 µM
C=C[C@H](OC(C)=O)c1ccc(OC(C)=O)cc1 | RT-112 | cell growth or viability, MTT | 24 h | 14.1 µM
O=[N+]([O-])c1ccc(NC2=N[N+](=Cc3cccs3)[Pt-]([Cl])([Cl])[S]2)cc1 | CRFK | cell growth or viability |  | > 100 µM
CCC12CCc3c(c4ccccc4n3C)CCN(CC3OC31)C2 (stereo not drawn) | BV-2 | cell growth or viability, MTT |  | 73.1 µM
Cc1cc(C)c(-n2c3c([n+](-c4c(C)cc(C)cc4C)[c]2[Au-][Cl])-c2cccc4cccc-3c24)c(C)c1 | C13 cisplatin-resistant | cell viability, MTT | 72 h | 8 ± 1 µM
C[C@@H]1NC(=O)[C@@H](CCC(=O)O)NC(=O)[C@H](Cc2ccccc2)NC(=O)[C@H](CCC(=O)O)NC(=O)[C@H](CC(N)=O)NC1=O | WM-115 | WM-115 cell adhesion, inhibitor | 1 h, added: immobilized CagL RGA mutant | 30 to 530 µM
[Fe+2].c1ccc(P(=NCc2ccccn2)(c2ccccc2)[c-]2cccc2)cc1.c1ccc(P(=NCc2ccccn2)(c2ccccc2)[c-]2cccc2)cc1 | A2780cisR (cisplatin-resistant) | cell growth, MTT | 74 h, 1% DMSO | 13.1 ± 4 µM
C1=CCC=C1.[Cl][Pd-2]1([Cl])[N+](=P(c2ccccc2)(c2ccccc2)C2C=CC=C2)Cc2cccc[n+]21.[Fe+2] | A2780cisR (cisplatin-resistant) | cell growth, MTT | 74 h, 1% DMSO | 11.9 ± 2.5 µM
